Experimental data from different studies.
Each line is one published result; not all experiments were run side by side. ± gives the spread as reported.

| Structure (SMILES) | assay | test system | conditions | quantity | value |
| --- | --- | --- | --- | --- | --- |
| O=C(NCCCN(CCCCN(CCCNC(=O)c1cccc(=O)n1[O-])C(=O)c1cccc(=O)n1[O-])C(=O)c1cccc(=O)n1[O-])c1cccc(=O)n1[O-].[89Zr+4] | radio-TLC | PBS | 7 d, pH 7.4, 37 °C, added: Cu^2+ 10-fold excess | intact complex | 98.4 ± 2.3% |
| N=C(N)NCCC[C@@H]1NC(=O)[C@H](Cc2c[nH]c3ccccc23)NC(=O)[C@@H](CC2CCCCC2)NC(=O)[C@@H]2CCCN2C(=O)[C@@H](NC(=O)CCc2ccccc2)CCCNC1=O |  | C57BL/6J mice, spinal cord | subcutaneous, 1 mg/kg, two-compartment model | apparent central volume (V1/F) | 0.05 µg/(ng/g) |
| Cc1[nH]nc2c1N=C(c1ccccc1Cl)c1cnc(NCC(=O)O)cc1N2 |  | human male, urine | oral, 10 mg, 0-72 h | urinary excretion | 0.37 %Dose |
| C=CC(=O)Nc1cc(Nc2nccc(-c3cn(C4CC4)c4ccccc34)n2)c(OC)cc1N(C)CCNC | radiolabelled metabolite profiling | human male, plasma | oral, 110 mg, 6 h | plasma concentration | 30.4 ng/g |
| CCC/C(=C\C1=C(F)C(=O)c2ccccc2C1=O)C(=O)N(CC)CC |  | mouse liver S9 | 1 µM, phase II UGT conditions | CLint | 8.2 mL/min/kg |
| O=C([O-])CN1CCN(CC(=O)[O-])CCN(CC(=O)NC[C@H]2CC[C@H](C(=O)N[C@H](Cc3cnc4ccccc4c3)C(=O)NCCCC[C@H](NC(=O)N[C@@H](CCC(=O)O)C(=O)O)C(=O)O)CC2)CCN(CC(=O)[O-])CC1.[64Cu+2] | PET/CT dosimetry OLINDA/EXM | healthy volunteers, pancreas | up to 24 h post-injection | absorbed dose | 0.0325 mGy/MBq |
| O=[11C](OC(C(F)(F)F)C(F)(F)F)N1CCC(CNS(=O)(=O)c2ccc(Cl)cc2)CC1 | PET | Sprague-Dawley rat, hippocampus | intravenous, dose not given, baseline | radioactivity uptake | 1.55 SUV |
| COc1cc(C)c(-c2ccc(O)c3c2C[C@@H](C)N[C@@H]3C)c2cccc(O)c12 (single isomer, unassigned) | metabolic stability | male CD-1 mouse, liver microsomes | 1 µM, 30 min | compound remaining | 32% |
| Cn1c(=O)oc2ccc(-c3ccc(CC(C#N)NC(=O)C4CNCCCO4)c(F)c3)cc21 (stereo not shown) |  | human | oral, 40 mg once daily, treatment-related AE, multiple ascending dose | bilirubin increased incidence | 11.1% |
| CC[C@H](C)[C@H](N)C(=O)N[C@@H](CC(C)C)C(=O)N1CCC[C@H]1C(=O)N[C@@H](Cc1c[nH]c2ccccc12)C(=O)N[C@@H](CCCCN)C(=O)N[C@@H](Cc1c[nH]c2ccccc12)C(=O)N1CCC[C@H]1C(=O)N[C@@H](Cc1c[nH]c2ccccc12)C(=O)N[C@@H](Cc1c[nH]c2ccccc12)C(=O)N1CCC[C@H]1C(=O)N[C@@H](Cc1c[nH]c2ccccc12)C(=O)N[C@@H](CCCNC(=N)N)C(=O)N[C@@H](CCCNC(=N)N)C(N)=O | fluorescence spectroscopy | DMPC/DMPG 7:3 SUVs | lipid/peptide 50:1, excitation 295 nm, added: lipid 726 µM | Trp emission maximum | 346 nm |
| CCCCCCCCCCCCCCCC(=O)OCC(CSC[C@H](N)C(=O)NCC(=O)N[C@@H](CC(=O)O)C(=O)N1CCC[C@H]1C(=O)N[C@@H](CCCCN)C(=O)N[C@@H](Cc1c[nH]cn1)C(=O)N1CCC[C@H]1C(=O)N[C@@H](CCCCN)C(=O)N[C@@H](CO)C(=O)N[C@@H](Cc1ccccc1)C(=O)O)OC(=O)CCCCCCCCCCCCCCC (stereo partly shown) | LC-MS/MS | rhesus monkey, non-irradiated, plasma | subcutaneous, 0.09 mg/kg single dose | half-life | 14.2 h |
| Cc1ccc(/N=N/c2c(O)ccc3ccccc23)c(C)c1 |  | Sprague-Dawley rats both sexes, whole blood | oral, 50 mg/kg | absorption rate constant | 1.39 h⁻¹ |
| CC(=O)N1CCC(NC(=O)Nc2ccc(OC(F)(F)F)cc2)CC1 |  | male C57BL/6J mice, blood | 1 mg/kg | time to full blood elimination | ≤ 168 h |
| Cc1cc2c(cc1C1(c3ncc(C(=O)O)cn3)CC1)C(C)(C)CCC2(C)C |  | Sprague-Dawley rat, male | oral, 100 mg/kg, 6 h, sesame oil vehicle | blood triglycerides | 229 ± 93 mg/dL |
| COc1cc(NC(C)=O)c2c(c1O)-c1c(OC)c(OC)cc3c1C(C2)N(C)CC3 (stereo not shown) |  | rat heart homogenate | 0.5 µg/mL, 24 h, room temperature, post-preparative storage | remaining compound | 100 ± 2.8% |
| O=C([O-])CN1CCN(CC(=O)[O-])CCN(CC(=O)[O-])CCN(CC(=O)[O-])CC1.[64Cu+2] |  | human serum | 1 h, 37 °C, added: 64Cu | radiometal bound to chelator | 77% |

Repeated from above:
| Structure (SMILES) | assay | test system | conditions | quantity | value |
| --- | --- | --- | --- | --- | --- |
| CC[C@H](C)[C@H](N)C(=O)N[C@@H](CC(C)C)C(=O)N1CCC[C@H]1C(=O)N[C@@H](Cc1c[nH]c2ccccc12)C(=O)N[C@@H](CCCCN)C(=O)N[C@@H](Cc1c[nH]c2ccccc12)C(=O)N1CCC[C@H]1C(=O)N[C@@H](Cc1c[nH]c2ccccc12)C(=O)N[C@@H](Cc1c[nH]c2ccccc12)C(=O)N1CCC[C@H]1C(=O)N[C@@H](Cc1c[nH]c2ccccc12)C(=O)N[C@@H](CCCNC(=N)N)C(=O)N[C@@H](CCCNC(=N)N)C(N)=O | fluorescence spectroscopy | DMPC/DMPG 7:3 SUVs | lipid/peptide 50:1, excitation 295 nm, added: lipid 726 µM | Trp emission maximum | 346 nm |
| CCCCCCCCCCCCCCCC(=O)OCC(CSC[C@H](N)C(=O)NCC(=O)N[C@@H](CC(=O)O)C(=O)N1CCC[C@H]1C(=O)N[C@@H](CCCCN)C(=O)N[C@@H](Cc1c[nH]cn1)C(=O)N1CCC[C@H]1C(=O)N[C@@H](CCCCN)C(=O)N[C@@H](CO)C(=O)N[C@@H](Cc1ccccc1)C(=O)O)OC(=O)CCCCCCCCCCCCCCC (stereo partly shown) | LC-MS/MS | rhesus monkey, non-irradiated, plasma | subcutaneous, 0.09 mg/kg single dose | half-life | 14.2 h |
